# Experimental data collected from several papers.
# A part holds a random share of what one study measured. “And” joins repeats or separate records; there may be more than shown.
# UniProt P42336, sequence (whole entry, unmodified, looked up): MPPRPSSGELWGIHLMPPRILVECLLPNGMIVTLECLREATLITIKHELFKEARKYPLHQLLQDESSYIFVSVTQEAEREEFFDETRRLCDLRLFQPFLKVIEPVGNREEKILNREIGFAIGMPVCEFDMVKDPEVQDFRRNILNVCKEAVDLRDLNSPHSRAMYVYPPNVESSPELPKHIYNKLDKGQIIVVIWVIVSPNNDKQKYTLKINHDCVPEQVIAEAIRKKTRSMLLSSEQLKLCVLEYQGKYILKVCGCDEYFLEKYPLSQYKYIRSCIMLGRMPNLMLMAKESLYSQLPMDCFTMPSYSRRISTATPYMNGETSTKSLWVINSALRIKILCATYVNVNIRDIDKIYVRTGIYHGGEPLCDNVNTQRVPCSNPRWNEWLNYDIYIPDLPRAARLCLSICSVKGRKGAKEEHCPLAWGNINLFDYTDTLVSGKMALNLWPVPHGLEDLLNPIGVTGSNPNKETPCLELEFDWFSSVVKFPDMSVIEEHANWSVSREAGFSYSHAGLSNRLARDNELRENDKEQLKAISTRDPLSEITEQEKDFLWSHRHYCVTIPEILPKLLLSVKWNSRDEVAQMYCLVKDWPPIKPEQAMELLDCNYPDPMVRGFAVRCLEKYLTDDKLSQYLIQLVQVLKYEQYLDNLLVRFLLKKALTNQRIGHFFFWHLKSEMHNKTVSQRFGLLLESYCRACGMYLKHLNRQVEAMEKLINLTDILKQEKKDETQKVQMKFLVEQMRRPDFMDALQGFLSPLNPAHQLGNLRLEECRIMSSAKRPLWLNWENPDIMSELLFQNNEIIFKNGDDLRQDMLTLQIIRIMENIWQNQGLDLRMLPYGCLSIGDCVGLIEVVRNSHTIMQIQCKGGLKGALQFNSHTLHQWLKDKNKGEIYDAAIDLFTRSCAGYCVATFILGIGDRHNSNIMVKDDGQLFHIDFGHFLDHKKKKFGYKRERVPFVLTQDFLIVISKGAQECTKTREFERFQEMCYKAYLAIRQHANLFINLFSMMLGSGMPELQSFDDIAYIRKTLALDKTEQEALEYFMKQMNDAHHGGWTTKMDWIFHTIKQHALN
# UniProt Q9H2S9, sequence (whole entry, looked up): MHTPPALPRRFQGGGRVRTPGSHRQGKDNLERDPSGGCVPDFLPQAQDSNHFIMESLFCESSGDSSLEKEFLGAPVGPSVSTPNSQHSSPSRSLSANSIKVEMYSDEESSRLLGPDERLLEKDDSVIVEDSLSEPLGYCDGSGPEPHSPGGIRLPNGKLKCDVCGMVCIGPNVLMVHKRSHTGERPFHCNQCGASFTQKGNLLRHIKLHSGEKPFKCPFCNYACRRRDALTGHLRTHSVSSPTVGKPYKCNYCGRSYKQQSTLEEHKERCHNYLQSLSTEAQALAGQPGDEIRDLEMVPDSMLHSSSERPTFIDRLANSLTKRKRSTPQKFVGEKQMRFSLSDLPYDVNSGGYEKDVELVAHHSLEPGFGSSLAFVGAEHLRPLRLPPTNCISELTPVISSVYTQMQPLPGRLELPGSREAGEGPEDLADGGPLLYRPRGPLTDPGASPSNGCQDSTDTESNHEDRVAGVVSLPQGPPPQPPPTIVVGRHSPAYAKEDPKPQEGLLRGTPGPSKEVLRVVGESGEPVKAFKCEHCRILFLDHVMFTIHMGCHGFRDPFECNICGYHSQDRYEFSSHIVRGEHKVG
# UniProt Q9H2G2, sequence (whole entry, looked up): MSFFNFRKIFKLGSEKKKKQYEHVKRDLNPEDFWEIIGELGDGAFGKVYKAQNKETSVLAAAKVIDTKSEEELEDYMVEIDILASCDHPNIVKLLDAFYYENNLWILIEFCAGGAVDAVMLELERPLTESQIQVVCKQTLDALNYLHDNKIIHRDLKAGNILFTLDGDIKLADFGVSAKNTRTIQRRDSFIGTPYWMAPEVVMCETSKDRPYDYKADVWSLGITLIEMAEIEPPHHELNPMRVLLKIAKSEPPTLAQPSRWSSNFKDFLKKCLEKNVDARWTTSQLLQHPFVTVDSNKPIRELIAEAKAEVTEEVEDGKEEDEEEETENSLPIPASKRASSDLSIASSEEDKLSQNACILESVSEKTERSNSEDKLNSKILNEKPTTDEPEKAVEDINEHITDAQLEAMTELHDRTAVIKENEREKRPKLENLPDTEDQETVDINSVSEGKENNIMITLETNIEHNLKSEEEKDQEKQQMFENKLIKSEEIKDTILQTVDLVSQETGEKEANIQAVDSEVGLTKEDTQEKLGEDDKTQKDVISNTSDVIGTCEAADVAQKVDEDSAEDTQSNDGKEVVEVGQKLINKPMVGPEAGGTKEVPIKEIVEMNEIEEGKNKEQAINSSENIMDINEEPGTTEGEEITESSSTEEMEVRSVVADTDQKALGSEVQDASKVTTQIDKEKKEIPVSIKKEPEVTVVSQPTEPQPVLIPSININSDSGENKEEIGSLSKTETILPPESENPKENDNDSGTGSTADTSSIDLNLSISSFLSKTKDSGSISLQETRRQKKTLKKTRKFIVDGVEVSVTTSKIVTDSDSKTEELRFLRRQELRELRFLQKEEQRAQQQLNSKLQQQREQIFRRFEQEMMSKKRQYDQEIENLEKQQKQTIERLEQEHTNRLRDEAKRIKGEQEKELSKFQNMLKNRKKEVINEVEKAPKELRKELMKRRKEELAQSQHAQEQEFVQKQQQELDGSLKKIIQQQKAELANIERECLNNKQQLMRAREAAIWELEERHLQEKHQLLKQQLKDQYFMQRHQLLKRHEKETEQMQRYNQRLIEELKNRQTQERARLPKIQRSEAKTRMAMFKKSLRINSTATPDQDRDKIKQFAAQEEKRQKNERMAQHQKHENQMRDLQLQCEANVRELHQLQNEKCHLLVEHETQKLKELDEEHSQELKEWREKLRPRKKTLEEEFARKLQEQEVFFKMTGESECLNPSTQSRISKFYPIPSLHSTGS
# UniProt Q9P0L2, sequence (whole entry, looked up): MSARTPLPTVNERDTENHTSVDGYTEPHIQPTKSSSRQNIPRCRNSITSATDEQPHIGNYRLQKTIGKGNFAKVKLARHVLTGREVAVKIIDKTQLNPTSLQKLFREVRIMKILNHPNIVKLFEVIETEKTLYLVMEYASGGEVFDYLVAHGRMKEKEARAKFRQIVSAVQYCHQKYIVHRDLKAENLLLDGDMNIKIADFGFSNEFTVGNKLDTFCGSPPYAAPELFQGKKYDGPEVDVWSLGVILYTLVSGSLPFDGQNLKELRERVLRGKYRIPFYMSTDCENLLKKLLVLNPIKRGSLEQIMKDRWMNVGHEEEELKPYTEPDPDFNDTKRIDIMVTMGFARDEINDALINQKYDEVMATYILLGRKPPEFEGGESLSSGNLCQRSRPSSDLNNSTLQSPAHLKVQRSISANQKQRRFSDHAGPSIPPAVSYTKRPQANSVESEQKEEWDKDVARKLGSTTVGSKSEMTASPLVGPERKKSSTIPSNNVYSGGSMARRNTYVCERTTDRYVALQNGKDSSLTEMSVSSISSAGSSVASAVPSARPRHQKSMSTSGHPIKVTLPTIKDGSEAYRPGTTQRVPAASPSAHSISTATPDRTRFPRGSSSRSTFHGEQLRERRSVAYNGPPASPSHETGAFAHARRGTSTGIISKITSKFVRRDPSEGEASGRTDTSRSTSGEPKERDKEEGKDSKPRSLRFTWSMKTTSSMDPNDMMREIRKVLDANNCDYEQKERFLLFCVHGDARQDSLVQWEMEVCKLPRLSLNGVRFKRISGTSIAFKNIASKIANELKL
# UniProt O15146, sequence (whole entry, looked up): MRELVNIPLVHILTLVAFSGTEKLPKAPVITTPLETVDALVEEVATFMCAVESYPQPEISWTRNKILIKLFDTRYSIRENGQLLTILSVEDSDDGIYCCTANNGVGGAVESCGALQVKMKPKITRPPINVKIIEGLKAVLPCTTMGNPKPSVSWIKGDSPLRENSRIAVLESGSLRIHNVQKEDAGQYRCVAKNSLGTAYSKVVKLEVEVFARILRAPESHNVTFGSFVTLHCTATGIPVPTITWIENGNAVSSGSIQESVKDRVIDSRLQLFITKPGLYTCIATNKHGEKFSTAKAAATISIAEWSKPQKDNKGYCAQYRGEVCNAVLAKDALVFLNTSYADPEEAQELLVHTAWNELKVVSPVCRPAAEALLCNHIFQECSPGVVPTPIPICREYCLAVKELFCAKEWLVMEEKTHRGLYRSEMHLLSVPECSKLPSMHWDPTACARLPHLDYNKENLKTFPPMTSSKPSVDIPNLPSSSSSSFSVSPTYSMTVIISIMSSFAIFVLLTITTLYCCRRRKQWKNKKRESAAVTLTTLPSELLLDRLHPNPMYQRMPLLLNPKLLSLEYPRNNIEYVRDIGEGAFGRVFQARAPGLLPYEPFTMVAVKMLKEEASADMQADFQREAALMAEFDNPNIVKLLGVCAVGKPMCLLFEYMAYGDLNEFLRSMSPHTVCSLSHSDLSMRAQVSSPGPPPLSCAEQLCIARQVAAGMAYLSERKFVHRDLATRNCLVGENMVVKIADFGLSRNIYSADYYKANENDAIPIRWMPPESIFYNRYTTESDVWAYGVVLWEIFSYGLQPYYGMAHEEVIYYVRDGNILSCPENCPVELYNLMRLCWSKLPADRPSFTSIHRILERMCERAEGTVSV

# Series 1 — mode: degrader; technique: HiBiT; cells: HEK293
# Compound: O=C1CCC(N2Cc3cc(C4CCN(Cc5ccccc5)CC4)ccc3C2=O)C(=O)N1 (stereo not drawn)
# GSPT1: Eukaryotic peptide chain release factor GTP-binding subunit ERF3A (GSPT1, Homo sapiens, UniProt P15170)
# UniProt P15170, sequence (whole entry, looked up): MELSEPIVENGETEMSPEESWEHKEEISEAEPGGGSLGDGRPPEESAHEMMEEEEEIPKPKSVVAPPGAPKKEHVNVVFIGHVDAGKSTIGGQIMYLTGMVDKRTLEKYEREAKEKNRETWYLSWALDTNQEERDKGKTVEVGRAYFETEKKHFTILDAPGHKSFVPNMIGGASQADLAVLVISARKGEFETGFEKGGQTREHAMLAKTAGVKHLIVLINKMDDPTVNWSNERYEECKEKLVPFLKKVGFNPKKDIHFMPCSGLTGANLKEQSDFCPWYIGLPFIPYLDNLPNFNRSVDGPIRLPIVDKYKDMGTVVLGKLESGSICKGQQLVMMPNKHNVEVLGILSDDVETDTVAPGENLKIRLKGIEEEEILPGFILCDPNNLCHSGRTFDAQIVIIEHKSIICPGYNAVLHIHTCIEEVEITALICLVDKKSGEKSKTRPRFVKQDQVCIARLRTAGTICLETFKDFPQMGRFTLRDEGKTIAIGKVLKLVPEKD
target,setting,remaining protein
GSPT1,0.3704 µM,108% and 84.1%
"Zinc finger protein Eos (IKZF4, Homo sapiens, UniProt Q9H2S9)","0.004115 µM, 6 h",112%
GSPT1,3.333 µM,95.1% and 110%
"DNA-binding protein Ikaros (Homo sapiens, UniProt Q13422)","0.04115 µM, 6 h",88.8%
"Zinc finger protein Aiolos (Homo sapiens, UniProt Q9UKT9)","0.3704 µM, 6 h",82.5%

# Series 2 — technique: logD(dd/w) and ALogP; notes: JT method
SMILES,lipophilic permeability efficiency
CC(C)C[C@@H]1NC(=O)[C@H](CC(C)C)NC(=O)[C@@H](CC(C)C)NC(=O)[C@@H](CC(C)C)NC(=O)[C@H](C(C)C)NC(=O)[C@H](CC(C)C)NC(=O)[C@@H](CC(C)C)NC1=O,3.1
CC(C)C[C@@H]1NC(=O)[C@H](CC(C)C)NC(=O)[C@@H](CC(C)C)NC(=O)[C@H](CC(C)C)NC(=O)[C@@H](Cc2cscn2)NC(=O)[C@H](C)NC(=O)[C@H](CCC(=O)N2CCCC2)NC1=O,2.12
CC(C)C[C@@H]1NC(=O)[C@H](Cc2cscn2)NC(=O)[C@H](CCC(=O)N2CCCC2)NC(=O)[C@H](C)NC(=O)[C@@H](Cc2cscn2)NC(=O)[C@H](CC(C)C)NC(=O)[C@@H](CC(C)C)NC1=O,2
CC(C)C[C@@H]1NC(=O)[C@H](C)NC(=O)[C@H](Cc2cscn2)NC(=O)[C@@H](CC(C)C)NC(=O)[C@@H](CCC(=O)N2CCCC2)NC(=O)[C@H](CC(C)C)NC(=O)[C@@H](CC(C)C)NC1=O,2.32
CC(C)C[C@@H]1NC(=O)[C@H](CC(C)C)NC(=O)[C@H](CC(C)C)NC(=O)[C@H](C(C)C)NC(=O)[C@@H](Cc2cscn2)NC(=O)[C@H](CCC(=O)N2CCCC2)NC(=O)[C@H](C)NC1=O,1.66
CC(C)C[C@@H]1NC(=O)[C@H](C(C)C)NC(=O)[C@@H](CC(C)C)NC(=O)[C@@H](CC(C)C)NC(=O)[C@H](C)NC(=O)[C@H](CC(C)C)NC(=O)[C@@H](CC(C)C)NC1=O,2.93

# Series 3 — species: mouse; sample: microsomes or S9; concentration: 2 µM; time: 0.5 h
SMILES,remaining compound
COC(=O)c1c(=O)n(Cc2ccc(C(C)(C)C)cc2)c(=O)n2c(-c3ccc(Cl)cc3)c(-c3ccc(Cl)cc3)oc12,> 99.9%
CCOC(=O)Cn1c(C(=O)OCC)cc2cc(NS(=O)(=O)c3ccc(OC)c(OC)c3)ccc21,0.00951%
CCN(CC)S(=O)(=O)c1ccc(NC(=O)CN(c2cc(C)ccc2C)S(C)(=O)=O)cc1,< 1%
O=C1CC(c2ccccc2)=NN1c1nc(-c2ccc(Cl)cc2)cs1,96.5%
CCc1nc(-c2ccncc2)cc2c1sc1ccccc12,1.66%
Cc1cc(NC(=O)C(O)c2cc(Cl)cc(Cl)c2)c[nH]c1=O (stereo not drawn),90.9%
O=C(COc1ccc(Cl)cc1Cl)Nc1nc2n(n1)C(c1ccccc1)CC(=O)N2 (stereo not drawn),45.4%
Cc1ccc2c(-c3cn4c(C)c(C)sc4n3)c(C)[nH]c2c1,0.118%
CSc1cc(=O)oc2c(Cl)ccc(Cl)c12,> 99%

# Series 4 — technique: competition with immobilised ligand; concentration: 1 µM
# SMILES: Cn1nc(C(F)(F)F)cc1-c1cnc(N2CCc3cc(S(=O)(=O)Nc4c(F)cc(Cl)cc4F)cc(N4CCCC4=O)c32)nc1
target,assay,remaining binding
"Tyrosine-protein kinase ABL1, phosphorylated (ABL1, Homo sapiens, UniProt P00519, H396P)",cell-free assay,87%
"Tyrosine-protein kinase FRK (FRK, Homo sapiens, UniProt P42685)",cell-free assay,83%
"Serine/threonine-protein kinase BRSK2 (BRSK2, Homo sapiens, UniProt Q8IWQ3)",cell-free assay,73%
"Tyrosine-protein kinase Fgr (FGR, Homo sapiens, UniProt P09769)",cell-free assay,90%
"Serine/threonine-protein kinase tousled-like 2 (TLK2, Homo sapiens, UniProt Q86UE8)",cell-free assay,94%
"Receptor-type tyrosine-protein kinase FLT3 (FLT3, Homo sapiens, UniProt P36888, F691L/ITD)",cell-free assay,32%
"Serine/threonine-protein kinase PLK4 (PLK4, Homo sapiens, UniProt O00444)",cell-free assay,77%
"Rhodopsin kinase GRK1 (GRK1, Homo sapiens, UniProt Q15835)",cell-free assay,95%
"Myosin light chain kinase (MYLK3, Homo sapiens, UniProt Q32MK0)",cell-free assay,84%
"Platelet-derived growth factor receptor alpha (PDGFRA, Homo sapiens, UniProt P16234)",cell-free assay,88%
"STE20-like serine/threonine-protein kinase (SLK, Homo sapiens, UniProt Q9H2G2)",cell-free assay,100%
"Dual specificity tyrosine-phosphorylation-regulated kinase 2 (DYRK2, Homo sapiens, UniProt Q92630)",cell-free assay,87%
"Muscle, skeletal receptor tyrosine-protein kinase (MUSK, Homo sapiens, UniProt O15146)",cell-free assay,87%
"Dual specificity testis-specific protein kinase 1 (TESK1, Homo sapiens, UniProt Q15569)",cell-free assay,86%
"Phosphatidylinositol 4,5-bisphosphate 3-kinase catalytic subunit alpha isoform (PIK3CA, Homo sapiens, UniProt P42336, I800L)",cell-free assay,77%
"Calcium/calmodulin-dependent protein kinase type II subunit gamma (CAMK2G, Homo sapiens, UniProt Q13555)",cell-free assay,95%
"Protein kinase C epsilon type (PRKCE, Homo sapiens, UniProt Q02156)",cell-free assay,96%
"Serine/threonine-protein kinase WNK1 (WNK1, Homo sapiens, UniProt Q9H4A3)",cell-free assay,98%
"Activin receptor type-1-like (ACVRL1, Homo sapiens, UniProt P37023)",binding,87%
"NUAK family SNF1-like kinase 1 (NUAK1, Homo sapiens, UniProt O60285)",cell-free assay,89%
"Serine/threonine-protein kinase MARK1 (MARK1, Homo sapiens, UniProt Q9P0L2)",cell-free assay,92%
"TGF-beta receptor type-1 (TGFBR1, Homo sapiens, UniProt P36897)",cell-free assay,100%

# Series 5 — technique: Incucyte 3D growth; concentration: 30 µM; direction: higher = more growth
# SMILES: CC(C)(C(=O)O)[C@H](NC(=O)Cc1cccc(I)c1)c1ccc2oc(=O)[nH]c2c1
cell line,setting,spheroid area
NCI-H358,102 h,3.84e+06 a.u. and 4.36e+06 a.u. and 5.27e+06 a.u. and 4.78e+06 a.u. and 3.97e+06 a.u.
KP-4,12 h,1.19e+07 a.u. and 9.43e+06 a.u. and 1.14e+07 a.u. and 1.15e+07 a.u. and 1.1e+07 a.u. and 1.34e+07 a.u.
NCI-H1437,210 h,8.81e+07 a.u. and 5.63e+07 a.u. and 6.73e+07 a.u. and 3.51e+07 a.u. and 5.16e+07 a.u. and 9.11e+07 a.u.
A375,384.52 h,1.89e+08 a.u. and 1.81e+08 a.u. and 1.63e+08 a.u. and 1.58e+08 a.u. and 1.74e+08 a.u.
NCI-H1437,144 h,2.96e+07 a.u. and 3.32e+07 a.u. and 3.38e+07 a.u. and 4.19e+07 a.u. and 3.28e+07 a.u. and 3.72e+07 a.u.
KP-4,186 h,2.76e+07 a.u. and 3.22e+07 a.u. and 2.75e+07 a.u. and 3.85e+07 a.u. and 2.67e+07 a.u. and 1.75e+07 a.u.

# A few entries again (series 2):
SMILES,lipophilic permeability efficiency
CC(C)C[C@@H]1NC(=O)[C@H](CC(C)C)NC(=O)[C@@H](CC(C)C)NC(=O)[C@@H](CC(C)C)NC(=O)[C@H](C(C)C)NC(=O)[C@H](CC(C)C)NC(=O)[C@@H](CC(C)C)NC1=O,3.1
CC(C)C[C@@H]1NC(=O)[C@H](C(C)C)NC(=O)[C@@H](CC(C)C)NC(=O)[C@@H](CC(C)C)NC(=O)[C@H](C)NC(=O)[C@H](CC(C)C)NC(=O)[C@@H](CC(C)C)NC1=O,2.93
CC(C)C[C@@H]1NC(=O)[C@H](C)NC(=O)[C@H](Cc2cscn2)NC(=O)[C@@H](CC(C)C)NC(=O)[C@@H](CCC(=O)N2CCCC2)NC(=O)[C@H](CC(C)C)NC(=O)[C@@H](CC(C)C)NC1=O,2.32
CC(C)C[C@@H]1NC(=O)[C@H](CC(C)C)NC(=O)[C@H](CC(C)C)NC(=O)[C@H](C(C)C)NC(=O)[C@@H](Cc2cscn2)NC(=O)[C@H](CCC(=O)N2CCCC2)NC(=O)[C@H](C)NC1=O,1.66
CC(C)C[C@@H]1NC(=O)[C@H](Cc2cscn2)NC(=O)[C@H](CCC(=O)N2CCCC2)NC(=O)[C@H](C)NC(=O)[C@@H](Cc2cscn2)NC(=O)[C@H](CC(C)C)NC(=O)[C@@H](CC(C)C)NC1=O,2
